Assay results from different studies.
Every numbered part comes from another study and shows a few of its results, in no order.
Sequence of UniProt P10721 (whole entry, unmodified, looked up): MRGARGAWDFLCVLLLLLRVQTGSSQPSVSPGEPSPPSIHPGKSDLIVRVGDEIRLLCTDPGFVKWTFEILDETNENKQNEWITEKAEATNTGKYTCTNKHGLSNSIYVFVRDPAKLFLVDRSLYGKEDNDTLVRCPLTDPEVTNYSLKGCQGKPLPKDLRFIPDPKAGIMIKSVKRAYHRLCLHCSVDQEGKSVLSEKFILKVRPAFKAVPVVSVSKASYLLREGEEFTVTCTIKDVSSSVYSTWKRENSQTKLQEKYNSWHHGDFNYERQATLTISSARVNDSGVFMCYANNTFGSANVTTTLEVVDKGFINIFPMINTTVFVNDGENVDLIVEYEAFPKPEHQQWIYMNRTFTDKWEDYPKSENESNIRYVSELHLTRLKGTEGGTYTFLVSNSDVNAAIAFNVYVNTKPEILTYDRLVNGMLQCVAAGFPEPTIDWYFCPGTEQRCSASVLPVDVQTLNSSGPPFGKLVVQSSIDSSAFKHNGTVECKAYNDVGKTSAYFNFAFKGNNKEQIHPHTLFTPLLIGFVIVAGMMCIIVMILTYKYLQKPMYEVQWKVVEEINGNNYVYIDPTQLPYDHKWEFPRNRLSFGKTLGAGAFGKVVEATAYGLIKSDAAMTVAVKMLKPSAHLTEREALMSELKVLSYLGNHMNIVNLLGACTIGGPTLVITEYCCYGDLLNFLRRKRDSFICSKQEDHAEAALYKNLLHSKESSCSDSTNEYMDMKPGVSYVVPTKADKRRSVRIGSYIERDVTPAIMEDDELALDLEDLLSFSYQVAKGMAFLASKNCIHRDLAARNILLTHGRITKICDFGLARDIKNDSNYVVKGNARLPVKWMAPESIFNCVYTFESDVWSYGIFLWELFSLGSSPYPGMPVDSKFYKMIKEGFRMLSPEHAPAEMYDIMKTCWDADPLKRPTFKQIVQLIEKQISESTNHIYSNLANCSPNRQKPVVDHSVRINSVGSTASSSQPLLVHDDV
Sequence of UniProt Q13233 (whole entry, looked up): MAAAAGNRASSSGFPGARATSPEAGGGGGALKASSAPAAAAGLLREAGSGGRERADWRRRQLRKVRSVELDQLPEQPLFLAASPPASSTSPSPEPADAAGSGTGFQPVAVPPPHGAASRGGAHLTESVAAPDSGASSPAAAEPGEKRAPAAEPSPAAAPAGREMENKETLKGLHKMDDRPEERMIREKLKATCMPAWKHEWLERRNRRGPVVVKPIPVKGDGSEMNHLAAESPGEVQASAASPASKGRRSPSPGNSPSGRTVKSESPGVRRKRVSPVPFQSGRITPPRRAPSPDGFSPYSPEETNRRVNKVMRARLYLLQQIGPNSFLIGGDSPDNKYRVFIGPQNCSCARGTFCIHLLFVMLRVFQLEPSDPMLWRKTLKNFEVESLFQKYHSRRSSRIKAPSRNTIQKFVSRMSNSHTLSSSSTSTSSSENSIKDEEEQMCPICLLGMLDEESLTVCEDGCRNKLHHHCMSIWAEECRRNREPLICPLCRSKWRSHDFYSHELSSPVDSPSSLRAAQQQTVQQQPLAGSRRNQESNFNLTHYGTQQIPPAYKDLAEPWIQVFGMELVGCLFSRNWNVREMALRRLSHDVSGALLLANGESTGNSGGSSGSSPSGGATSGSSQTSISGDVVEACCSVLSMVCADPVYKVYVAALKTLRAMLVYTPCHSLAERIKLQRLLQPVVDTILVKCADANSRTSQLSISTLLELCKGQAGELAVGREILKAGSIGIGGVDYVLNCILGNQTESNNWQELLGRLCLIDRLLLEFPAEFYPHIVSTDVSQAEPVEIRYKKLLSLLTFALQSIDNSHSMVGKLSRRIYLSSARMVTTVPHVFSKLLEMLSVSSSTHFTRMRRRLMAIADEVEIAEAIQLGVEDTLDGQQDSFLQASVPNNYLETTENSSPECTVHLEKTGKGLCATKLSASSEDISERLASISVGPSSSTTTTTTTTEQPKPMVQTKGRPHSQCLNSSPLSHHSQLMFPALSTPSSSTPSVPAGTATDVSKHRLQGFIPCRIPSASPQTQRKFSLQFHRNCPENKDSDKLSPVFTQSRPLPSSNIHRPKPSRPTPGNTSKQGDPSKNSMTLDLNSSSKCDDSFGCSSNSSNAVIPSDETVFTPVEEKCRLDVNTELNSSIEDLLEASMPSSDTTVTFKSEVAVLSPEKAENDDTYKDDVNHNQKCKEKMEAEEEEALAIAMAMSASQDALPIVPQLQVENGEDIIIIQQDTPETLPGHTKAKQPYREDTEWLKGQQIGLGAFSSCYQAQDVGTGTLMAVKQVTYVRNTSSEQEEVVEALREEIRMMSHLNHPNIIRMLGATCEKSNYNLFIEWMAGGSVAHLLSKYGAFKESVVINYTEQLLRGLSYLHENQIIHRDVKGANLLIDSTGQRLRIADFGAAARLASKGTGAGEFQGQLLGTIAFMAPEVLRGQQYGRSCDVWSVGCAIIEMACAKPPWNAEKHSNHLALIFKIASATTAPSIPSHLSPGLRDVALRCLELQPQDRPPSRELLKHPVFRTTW
Sequence of UniProt O15264 (whole entry, looked up): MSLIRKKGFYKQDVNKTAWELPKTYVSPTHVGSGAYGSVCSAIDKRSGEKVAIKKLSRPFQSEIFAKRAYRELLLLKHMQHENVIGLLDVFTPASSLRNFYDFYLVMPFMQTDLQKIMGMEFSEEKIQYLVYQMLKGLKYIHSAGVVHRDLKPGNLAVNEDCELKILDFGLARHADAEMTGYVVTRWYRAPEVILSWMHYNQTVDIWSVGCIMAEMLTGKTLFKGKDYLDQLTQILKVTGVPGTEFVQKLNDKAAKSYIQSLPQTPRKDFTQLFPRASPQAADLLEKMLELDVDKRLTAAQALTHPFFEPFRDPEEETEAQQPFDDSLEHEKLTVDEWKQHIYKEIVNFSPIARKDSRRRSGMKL
Sequence of UniProt Q16288 (whole entry, looked up): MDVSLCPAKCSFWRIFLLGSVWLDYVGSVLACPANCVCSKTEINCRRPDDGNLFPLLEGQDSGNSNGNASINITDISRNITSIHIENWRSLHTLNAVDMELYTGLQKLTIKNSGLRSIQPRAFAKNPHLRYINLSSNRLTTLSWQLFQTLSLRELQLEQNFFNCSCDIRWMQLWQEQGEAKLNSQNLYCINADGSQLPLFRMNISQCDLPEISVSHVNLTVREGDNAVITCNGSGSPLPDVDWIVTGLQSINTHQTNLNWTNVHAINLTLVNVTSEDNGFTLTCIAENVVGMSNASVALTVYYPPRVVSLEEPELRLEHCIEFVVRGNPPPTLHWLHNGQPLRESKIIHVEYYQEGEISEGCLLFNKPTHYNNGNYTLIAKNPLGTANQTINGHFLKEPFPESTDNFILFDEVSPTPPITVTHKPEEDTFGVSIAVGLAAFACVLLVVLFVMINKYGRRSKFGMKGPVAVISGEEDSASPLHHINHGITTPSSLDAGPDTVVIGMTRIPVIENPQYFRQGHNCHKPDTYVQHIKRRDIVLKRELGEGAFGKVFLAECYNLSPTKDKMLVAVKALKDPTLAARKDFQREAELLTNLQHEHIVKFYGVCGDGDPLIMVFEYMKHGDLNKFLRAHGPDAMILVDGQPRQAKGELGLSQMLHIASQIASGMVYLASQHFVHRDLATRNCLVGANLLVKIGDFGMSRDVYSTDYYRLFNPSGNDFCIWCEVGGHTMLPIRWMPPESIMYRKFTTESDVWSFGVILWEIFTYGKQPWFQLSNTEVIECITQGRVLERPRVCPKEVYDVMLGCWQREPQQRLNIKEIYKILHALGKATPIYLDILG
Sequence of UniProt P53671 (whole entry, looked up): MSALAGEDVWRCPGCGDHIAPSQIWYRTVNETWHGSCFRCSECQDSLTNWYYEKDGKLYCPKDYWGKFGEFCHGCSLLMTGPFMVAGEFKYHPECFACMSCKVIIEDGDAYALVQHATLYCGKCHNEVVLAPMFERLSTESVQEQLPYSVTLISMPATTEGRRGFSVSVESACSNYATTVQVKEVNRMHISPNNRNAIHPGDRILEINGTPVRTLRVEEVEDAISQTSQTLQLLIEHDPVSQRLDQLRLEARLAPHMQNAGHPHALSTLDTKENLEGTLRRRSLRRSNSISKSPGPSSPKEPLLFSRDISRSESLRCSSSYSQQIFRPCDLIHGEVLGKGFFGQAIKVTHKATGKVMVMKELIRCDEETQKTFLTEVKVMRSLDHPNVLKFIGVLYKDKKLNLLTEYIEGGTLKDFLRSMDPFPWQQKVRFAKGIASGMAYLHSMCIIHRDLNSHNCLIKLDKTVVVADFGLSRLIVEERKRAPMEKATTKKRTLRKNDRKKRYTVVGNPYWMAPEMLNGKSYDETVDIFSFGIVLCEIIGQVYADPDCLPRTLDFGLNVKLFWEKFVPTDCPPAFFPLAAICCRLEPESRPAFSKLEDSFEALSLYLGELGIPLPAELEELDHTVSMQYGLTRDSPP

Block 1
Target: Inhibitor of nuclear factor kappa-B kinase subunit alpha (CHUK, Homo sapiens, UniProt O15111)
Sequence of UniProt O15111 (whole entry, looked up): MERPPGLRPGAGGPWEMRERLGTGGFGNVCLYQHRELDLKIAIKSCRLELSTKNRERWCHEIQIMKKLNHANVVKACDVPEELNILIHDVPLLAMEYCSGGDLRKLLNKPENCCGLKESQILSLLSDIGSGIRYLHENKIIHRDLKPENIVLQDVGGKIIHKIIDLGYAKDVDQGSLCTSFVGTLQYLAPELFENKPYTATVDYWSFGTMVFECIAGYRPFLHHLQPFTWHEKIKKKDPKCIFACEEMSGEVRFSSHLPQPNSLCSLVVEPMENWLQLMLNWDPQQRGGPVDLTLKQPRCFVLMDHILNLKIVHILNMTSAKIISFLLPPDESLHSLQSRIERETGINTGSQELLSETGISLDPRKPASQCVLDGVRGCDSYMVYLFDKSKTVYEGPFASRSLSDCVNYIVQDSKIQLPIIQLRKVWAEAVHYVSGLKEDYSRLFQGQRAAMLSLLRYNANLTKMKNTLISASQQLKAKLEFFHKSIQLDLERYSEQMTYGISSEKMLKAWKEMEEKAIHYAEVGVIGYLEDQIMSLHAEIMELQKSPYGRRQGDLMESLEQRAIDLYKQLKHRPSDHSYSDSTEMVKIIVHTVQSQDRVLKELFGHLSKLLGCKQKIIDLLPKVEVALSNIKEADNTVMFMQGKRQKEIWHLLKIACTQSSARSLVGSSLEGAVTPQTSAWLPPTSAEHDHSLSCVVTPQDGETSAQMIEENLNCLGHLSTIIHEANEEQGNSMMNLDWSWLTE
Effect on: enzyme activity
Action: inhibitor
Concentration: 0.5 µM
Relative to: control
Compound | remaining activity [%]
Cc1cc(Nc2cc(N3CCN(C)CC3)nc(Sc3ccc(NC(=O)C4CC4)cc3)n2)[nH]n1 | 99.4
Cc1ccc(S(=O)(=O)/C=C/C#N)cc1 | 87.3
O=c1cc(N2CCOCC2)oc2c(-c3ccccc3)cccc12 | 104
c1ccc2c(-c3ccncc3)c[nH]c2c1 | 107
O=C1Nc2ccccc2/C1=C\c1c(Cl)[nH]c2ccccc12 | 94.2
COc1ccc(COc2ccc(Cc3cnc(N)nc3N)cc2OC)cc1 | 94.7
CCCNC(=O)Nc1ccc(Oc2ncnc3cc(OC)c(OC)cc23)cc1Cl | 84.9

Block 2
SMILES: CCOC(=O)c1cc2cc(-c3cc(C(=O)NCc4ccc(C(=O)O)cc4)nn3C)ccc2[nH]1
Effect on: cell-free assay
Technique: competition with immobilised ligand
Concentration: 0.1 µM
target | remaining binding
Leucine-rich repeat serine/threonine-protein kinase 2 (LRRK2, Homo sapiens, UniProt Q5S007, G2019S) | 83%
Mast/stem cell growth factor receptor Kit, autoinhibited (KIT, Homo sapiens, UniProt P10721) | 83%
Dual specificity tyrosine-phosphorylation-regulated kinase 1A (DYRK1A, Homo sapiens, UniProt Q13627) | 90%
Epidermal growth factor receptor (EGFR, Homo sapiens, UniProt P00533, L858R/T790M) | 100%
Serine/threonine-protein kinase VRK2 (VRK2, Homo sapiens, UniProt Q86Y07) | 98%
Phosphatidylinositol 4,5-bisphosphate 3-kinase catalytic subunit alpha isoform (PIK3CA, Homo sapiens, UniProt P42336, E545A) | 84%
LIM domain kinase 2 (LIMK2, Homo sapiens, UniProt P53671) | 96%
Mitogen-activated protein kinase kinase kinase 1 (MAP3K1, Homo sapiens, UniProt Q13233) | 90%
Mitogen-activated protein kinase 13 (MAPK13, Homo sapiens, UniProt O15264) | 100%
NT-3 growth factor receptor (NTRK3, Homo sapiens, UniProt Q16288) | 94%
Serine/threonine-protein kinase Chk2 (CHEK2, Homo sapiens, UniProt O96017) | 100%
Hormonally up-regulated neu tumor-associated kinase (HUNK, Homo sapiens, UniProt P57058) | 100%
Testis-specific serine/threonine-protein kinase 3 (TSSK3, Homo sapiens, UniProt Q96PN8) | 91%
Mast/stem cell growth factor receptor Kit (KIT, Homo sapiens, UniProt P10721, V559D) | 100%
Casein kinase I isoform gamma-2 (CSNK1G2, Homo sapiens, UniProt P78368) | 79%

Block 3
Target: Hepatocyte nuclear factor 3-alpha (Foxa1, Mus musculus, UniProt P35582, residues 1-468, full length assumed)
Technique: EMSA with sequencing
Molecule type: double-stranded DNA, one strand shown
Medium: in vitro
Concentration: 10 and 20 nM
Notes: whole designed probe, mean of two concentrations, ends assumed
Relative to: negative control set to 0
Direction: higher = stronger binding
Shared flanks, not repeated: GTGAGCGGTGCCCATTGATGGGGAAC … TTTCACTGGGATCGTGGGGAC
Construct (chain): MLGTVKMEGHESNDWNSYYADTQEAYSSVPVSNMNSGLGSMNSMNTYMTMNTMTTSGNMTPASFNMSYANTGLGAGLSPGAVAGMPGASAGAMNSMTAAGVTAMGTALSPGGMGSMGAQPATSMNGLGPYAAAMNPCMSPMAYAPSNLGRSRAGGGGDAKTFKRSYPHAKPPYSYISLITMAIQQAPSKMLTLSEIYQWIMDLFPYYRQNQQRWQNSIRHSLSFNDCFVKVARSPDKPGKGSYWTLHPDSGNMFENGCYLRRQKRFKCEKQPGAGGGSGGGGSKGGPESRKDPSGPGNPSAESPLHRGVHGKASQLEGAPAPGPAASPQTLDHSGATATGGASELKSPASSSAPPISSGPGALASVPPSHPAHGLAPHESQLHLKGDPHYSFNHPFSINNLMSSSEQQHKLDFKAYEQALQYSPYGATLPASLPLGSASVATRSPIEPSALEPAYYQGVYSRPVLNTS
Strand | normalised bound fraction
ACATTTGACAAACTTCAACACCCTTTCATGACAAAAACACTTATAGAAGGAAACAACCTCAACATAATAAAAGCCATATATGAAAAACCCACAGCAATCTTCACACTCCATGGTGAACGTCTGAAAGCTTTTTCTCTAAAAATCAAGAACAAGGCAAAGATGCTCAATTTCACCACTTCTATTCAACGTAGTT | -0.0381 ratio
ATCTTCCCCCTCTTCCTTGCCCCACCAGCTCACCTTCCCGGGTTATTTGCAGATAAAAAGTAGAATAAAGCCGGCATTCGTTAACCCTCTTCTGGCGCAAACTGCTGTTTGCTCTGGATGAATCATGGTCCTTTGGCGACGCCAGGCTCCGGGAGAGCAAAGCACCGTGTCAGGGCCATGATCCGGGGTGGCC | 0.245 ratio
AGGACATAAGCCAGCCCAGATAACAAGCTAAGAAATTTGTTTAGGCAGAAGGGGGAGCTAGAGCAAATCAGTTCACATGCTCTCTCTGTCTCCTGTTTACACTGTAGTATTACAGGTGTTAGACGGTAGCAAGTCCTAGAGAAGTGTGTTGTGTAAGTCACTGTCATTCAACATTGTAAACAGCTAGGTAAAA | 0.27 ratio
ACACCCTTGACCTCTTCATATTGACATCATACGGTACTATATCCTCACAAAATGATTTCCAGTGCTTAATTTAGGTTGTAGCTGCTTTCTTAAGCAATCTGGAAGAAAAACAGCTAGGGTAGTAATTGGAGTGTCTGTCTTTGAGTTTCCAGTTGTTATGGGATATTTATCTCAAAGGCCAGATGCATCTGAC | -0.033 ratio
AATGTGTGTACTTACTAGACTACAGTATAGTGTAATTTTAACTTAAGTATGTACTGGAAAACCAAAACATTCATGCGACTTGTTTTATTGCAGAAATTACTTTATTAGGTGATCTGGAACAGAACCCACAGTATCTTCAAGGTATGTGTATACTTCTCTAAATCAAATTTAATCTGATCCAAGCCTTCATCTC | 0.0799 ratio
CCTTGTTATTTGCAGGTATCCAAATGTCTGCATGTGGGAGCATTCCTTGTGGATTAGGGTGTTAGTGTCTAGGAGTCTCCTCTTTTATGAAATGCAATCTTTCTTTGAGCACAATTGCAACATCAGCTGTGAAAATTACCTAAATGTTTCCCAAGGATAAGTGGCTTACGTCAGAGCCCTGAGGCTACAGGAT | -0.0493 ratio
GAAATGCCTCGCTTTTATTGTGAAGTTTTGCCTGCATTTTCTCCCTAACATTTATTTATTGCGGTGTCATTTACCGCTATGTGCAGAGATAATGTTTACTGAACGATCAACTGTCAACACTGTCTTGGCTGATAACCAGGAAGGAGCAAGCTTCCAAGTGCGTCACATCCTAATGTTGAAGGCTGCTGAGCAC | 0.321 ratio
ATAGTGCAGAACCAGAAGGGTTGCCTAAAATGTACTAAAATAGAATTAATAAAATTAACATAACTCTTTAGAAATATTATACTTCAAGTCCAAAATTACTTAGGGAGCATTATAAATTCCCTTATATAATTTCATCCATTGAATTACAAAAGACACGACAAAGGAGCTAATGGATATGAAAATTACATTAACA | -0.0534 ratio

Single results of other studies
Compound | tested on | test | test system | setting | measurement | value
O=C(O)COCCN1CCN(C(c2ccccc2)c2ccc(Cl)cc2)CC1 (centres unmarked) | Sarcocystis neurona | parasite activity |  | 10 µM, 96 h | activity class | inactive
CC(C)n1cnc(-c2ccc(F)cc2)c1-c1ncc(C(=O)Nc2ccc(N3CCN(C)CC3)cc2)[nH]1 |  | phase 2a clinical trial | patients with idiopathic pulmonary fibrosis | 30 mg once daily | patients with alpha-HBDH increased TEAE | 0%

Excerpt of the above (block 3):
Strand | normalised bound fraction
ATCTTCCCCCTCTTCCTTGCCCCACCAGCTCACCTTCCCGGGTTATTTGCAGATAAAAAGTAGAATAAAGCCGGCATTCGTTAACCCTCTTCTGGCGCAAACTGCTGTTTGCTCTGGATGAATCATGGTCCTTTGGCGACGCCAGGCTCCGGGAGAGCAAAGCACCGTGTCAGGGCCATGATCCGGGGTGGCC | 0.245 ratio
AGGACATAAGCCAGCCCAGATAACAAGCTAAGAAATTTGTTTAGGCAGAAGGGGGAGCTAGAGCAAATCAGTTCACATGCTCTCTCTGTCTCCTGTTTACACTGTAGTATTACAGGTGTTAGACGGTAGCAAGTCCTAGAGAAGTGTGTTGTGTAAGTCACTGTCATTCAACATTGTAAACAGCTAGGTAAAA | 0.27 ratio
ACACCCTTGACCTCTTCATATTGACATCATACGGTACTATATCCTCACAAAATGATTTCCAGTGCTTAATTTAGGTTGTAGCTGCTTTCTTAAGCAATCTGGAAGAAAAACAGCTAGGGTAGTAATTGGAGTGTCTGTCTTTGAGTTTCCAGTTGTTATGGGATATTTATCTCAAAGGCCAGATGCATCTGAC | -0.033 ratio
